Assay results of several laboratories.
Numbered parts are unrelated; each lists some results of a single study. Values joined by “and” are separate records of one study, mostly repeats; a detail may differ.
Chain of UniProt P17948 (whole entry, looked up): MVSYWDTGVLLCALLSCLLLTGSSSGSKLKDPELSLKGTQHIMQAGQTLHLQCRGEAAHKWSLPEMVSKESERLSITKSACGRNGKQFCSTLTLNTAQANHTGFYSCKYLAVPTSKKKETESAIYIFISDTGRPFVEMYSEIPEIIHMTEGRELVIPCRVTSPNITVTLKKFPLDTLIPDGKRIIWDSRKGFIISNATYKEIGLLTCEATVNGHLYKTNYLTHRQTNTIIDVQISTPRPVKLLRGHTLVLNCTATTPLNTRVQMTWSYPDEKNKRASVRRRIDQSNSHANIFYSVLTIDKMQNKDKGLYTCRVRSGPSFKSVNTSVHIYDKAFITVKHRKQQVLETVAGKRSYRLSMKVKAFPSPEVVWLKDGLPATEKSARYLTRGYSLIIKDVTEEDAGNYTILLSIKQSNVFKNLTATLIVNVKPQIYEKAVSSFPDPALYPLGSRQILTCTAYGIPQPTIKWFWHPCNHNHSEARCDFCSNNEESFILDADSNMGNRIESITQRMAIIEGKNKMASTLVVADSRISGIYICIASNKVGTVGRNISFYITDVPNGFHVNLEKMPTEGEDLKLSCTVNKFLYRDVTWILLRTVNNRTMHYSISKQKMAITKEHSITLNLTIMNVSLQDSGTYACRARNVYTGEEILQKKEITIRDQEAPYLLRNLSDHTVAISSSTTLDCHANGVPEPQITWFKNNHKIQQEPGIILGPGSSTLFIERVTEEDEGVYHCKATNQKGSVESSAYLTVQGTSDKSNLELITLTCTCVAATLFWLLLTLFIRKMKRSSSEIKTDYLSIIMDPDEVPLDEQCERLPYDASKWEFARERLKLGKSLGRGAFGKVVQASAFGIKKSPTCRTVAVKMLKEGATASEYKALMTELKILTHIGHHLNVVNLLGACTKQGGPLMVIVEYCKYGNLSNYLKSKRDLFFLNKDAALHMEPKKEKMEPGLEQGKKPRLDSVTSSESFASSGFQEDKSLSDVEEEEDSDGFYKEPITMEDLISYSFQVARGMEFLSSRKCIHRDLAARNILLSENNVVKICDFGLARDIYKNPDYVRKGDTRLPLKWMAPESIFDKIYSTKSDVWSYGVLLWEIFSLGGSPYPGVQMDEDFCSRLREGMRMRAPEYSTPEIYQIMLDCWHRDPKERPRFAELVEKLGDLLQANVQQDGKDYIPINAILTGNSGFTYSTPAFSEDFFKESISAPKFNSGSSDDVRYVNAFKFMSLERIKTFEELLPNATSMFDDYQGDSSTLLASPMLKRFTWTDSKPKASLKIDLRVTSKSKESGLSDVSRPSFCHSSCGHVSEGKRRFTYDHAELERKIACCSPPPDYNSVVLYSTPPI
Chain of UniProt Q16832 (whole entry, looked up): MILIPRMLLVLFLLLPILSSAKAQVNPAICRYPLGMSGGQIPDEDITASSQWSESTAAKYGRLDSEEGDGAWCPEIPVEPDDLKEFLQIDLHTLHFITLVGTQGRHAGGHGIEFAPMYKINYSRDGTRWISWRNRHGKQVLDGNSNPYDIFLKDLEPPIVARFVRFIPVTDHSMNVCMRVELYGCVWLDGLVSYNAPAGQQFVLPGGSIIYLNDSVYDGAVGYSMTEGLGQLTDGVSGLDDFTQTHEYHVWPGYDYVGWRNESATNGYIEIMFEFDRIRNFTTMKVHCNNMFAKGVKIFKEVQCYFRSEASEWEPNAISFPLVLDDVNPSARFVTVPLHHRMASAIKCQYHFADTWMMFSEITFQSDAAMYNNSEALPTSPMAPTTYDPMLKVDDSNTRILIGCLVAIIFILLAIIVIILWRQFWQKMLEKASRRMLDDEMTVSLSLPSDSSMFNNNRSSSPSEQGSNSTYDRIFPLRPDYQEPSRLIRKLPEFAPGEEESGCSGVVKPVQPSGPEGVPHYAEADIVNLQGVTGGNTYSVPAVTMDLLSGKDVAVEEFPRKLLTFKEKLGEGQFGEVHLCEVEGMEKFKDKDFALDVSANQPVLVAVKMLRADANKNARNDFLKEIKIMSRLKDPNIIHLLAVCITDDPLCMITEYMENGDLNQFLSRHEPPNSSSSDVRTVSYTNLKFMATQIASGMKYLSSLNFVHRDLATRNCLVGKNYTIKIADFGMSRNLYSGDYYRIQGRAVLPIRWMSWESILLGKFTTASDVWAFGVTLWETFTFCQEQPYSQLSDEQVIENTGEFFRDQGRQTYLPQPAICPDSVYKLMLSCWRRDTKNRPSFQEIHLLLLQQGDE
Chain of UniProt P04629 (whole entry, looked up): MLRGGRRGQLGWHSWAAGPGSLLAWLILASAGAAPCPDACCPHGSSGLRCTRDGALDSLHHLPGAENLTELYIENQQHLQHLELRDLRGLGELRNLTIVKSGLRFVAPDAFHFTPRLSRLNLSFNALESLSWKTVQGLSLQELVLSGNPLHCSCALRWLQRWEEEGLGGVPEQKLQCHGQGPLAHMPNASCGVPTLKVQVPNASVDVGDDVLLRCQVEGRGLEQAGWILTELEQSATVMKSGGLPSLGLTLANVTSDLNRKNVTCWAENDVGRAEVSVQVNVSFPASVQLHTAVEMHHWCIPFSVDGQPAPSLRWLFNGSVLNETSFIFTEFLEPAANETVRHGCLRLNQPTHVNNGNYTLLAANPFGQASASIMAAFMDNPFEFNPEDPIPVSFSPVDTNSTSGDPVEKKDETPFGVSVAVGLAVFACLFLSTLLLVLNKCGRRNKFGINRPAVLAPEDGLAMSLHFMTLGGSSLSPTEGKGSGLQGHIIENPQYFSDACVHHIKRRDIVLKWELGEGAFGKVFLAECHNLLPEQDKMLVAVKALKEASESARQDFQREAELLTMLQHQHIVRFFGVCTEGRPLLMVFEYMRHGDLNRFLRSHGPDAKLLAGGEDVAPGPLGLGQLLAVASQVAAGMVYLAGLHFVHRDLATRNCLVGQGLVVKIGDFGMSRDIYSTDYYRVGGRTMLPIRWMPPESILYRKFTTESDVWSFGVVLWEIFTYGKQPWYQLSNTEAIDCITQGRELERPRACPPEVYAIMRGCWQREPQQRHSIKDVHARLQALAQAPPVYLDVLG
Chain of UniProt P49759 (whole entry, looked up): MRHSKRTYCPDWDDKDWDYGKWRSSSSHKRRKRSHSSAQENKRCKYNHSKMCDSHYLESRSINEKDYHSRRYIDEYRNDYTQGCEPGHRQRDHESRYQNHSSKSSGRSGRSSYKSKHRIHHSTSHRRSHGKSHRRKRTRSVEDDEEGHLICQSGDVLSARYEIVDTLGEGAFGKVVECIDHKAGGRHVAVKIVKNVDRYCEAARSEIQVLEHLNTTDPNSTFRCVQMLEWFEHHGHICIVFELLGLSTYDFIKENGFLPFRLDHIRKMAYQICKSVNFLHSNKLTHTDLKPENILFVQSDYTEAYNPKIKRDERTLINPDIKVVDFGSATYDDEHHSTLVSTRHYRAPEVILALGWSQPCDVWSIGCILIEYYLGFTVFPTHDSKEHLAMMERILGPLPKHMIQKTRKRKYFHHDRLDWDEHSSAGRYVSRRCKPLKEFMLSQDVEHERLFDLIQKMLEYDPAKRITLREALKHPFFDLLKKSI

Sample 1
Target: Cyclin-dependent kinase 12, with cyclin K (CDK12, Homo sapiens, UniProt Q9NYV4)
Chain of UniProt Q9NYV4 (whole entry, looked up): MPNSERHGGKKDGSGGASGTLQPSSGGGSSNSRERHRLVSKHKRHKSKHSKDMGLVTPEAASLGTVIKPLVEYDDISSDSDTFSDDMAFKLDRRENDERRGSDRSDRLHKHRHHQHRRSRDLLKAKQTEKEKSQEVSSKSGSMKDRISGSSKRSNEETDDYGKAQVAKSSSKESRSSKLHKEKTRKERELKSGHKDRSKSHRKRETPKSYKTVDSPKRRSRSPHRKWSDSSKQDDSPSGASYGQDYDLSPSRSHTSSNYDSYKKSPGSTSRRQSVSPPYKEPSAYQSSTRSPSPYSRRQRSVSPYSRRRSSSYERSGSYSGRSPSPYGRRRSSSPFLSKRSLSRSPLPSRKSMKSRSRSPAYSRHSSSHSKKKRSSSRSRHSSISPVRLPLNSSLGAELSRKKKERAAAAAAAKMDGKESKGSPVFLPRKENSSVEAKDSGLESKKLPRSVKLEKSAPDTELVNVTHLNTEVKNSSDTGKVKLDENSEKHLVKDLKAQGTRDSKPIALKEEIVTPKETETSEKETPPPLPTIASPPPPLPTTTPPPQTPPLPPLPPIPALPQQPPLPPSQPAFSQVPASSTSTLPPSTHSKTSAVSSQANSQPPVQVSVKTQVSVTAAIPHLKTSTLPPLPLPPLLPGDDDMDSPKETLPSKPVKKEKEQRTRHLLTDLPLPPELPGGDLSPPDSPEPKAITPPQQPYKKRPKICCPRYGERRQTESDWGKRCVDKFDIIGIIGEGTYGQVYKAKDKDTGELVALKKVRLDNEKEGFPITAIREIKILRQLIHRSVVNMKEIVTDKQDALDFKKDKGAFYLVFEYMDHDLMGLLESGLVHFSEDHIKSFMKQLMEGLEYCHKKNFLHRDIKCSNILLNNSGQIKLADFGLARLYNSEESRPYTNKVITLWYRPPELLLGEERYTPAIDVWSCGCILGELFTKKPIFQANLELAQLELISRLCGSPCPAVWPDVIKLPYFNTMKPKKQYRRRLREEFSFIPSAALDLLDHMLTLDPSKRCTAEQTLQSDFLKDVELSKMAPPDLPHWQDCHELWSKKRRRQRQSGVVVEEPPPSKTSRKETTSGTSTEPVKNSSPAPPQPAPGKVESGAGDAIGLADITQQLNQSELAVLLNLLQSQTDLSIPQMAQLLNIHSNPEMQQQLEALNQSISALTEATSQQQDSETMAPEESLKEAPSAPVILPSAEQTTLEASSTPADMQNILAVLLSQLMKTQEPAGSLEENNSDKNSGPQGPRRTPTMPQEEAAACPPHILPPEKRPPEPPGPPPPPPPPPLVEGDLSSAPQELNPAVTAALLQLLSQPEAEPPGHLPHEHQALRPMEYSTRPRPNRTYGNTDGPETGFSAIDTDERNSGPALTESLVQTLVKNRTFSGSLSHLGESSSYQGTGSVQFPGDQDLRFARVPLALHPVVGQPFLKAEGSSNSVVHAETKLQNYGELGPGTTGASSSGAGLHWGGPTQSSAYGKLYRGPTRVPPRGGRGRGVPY
Effect on: kinase activity
Action: inhibitor
Technique: ADP-Glo
Tested at: 0.0082 µM
Quantity: inhibition
Compound = CCn1cnc2c(NCc3nc4cc(Cl)c(Cl)cc4[nH]3)nc(N3CCn4ncnc4C3)nc21; value = 22%
Compound = CCn1cnc2c(NCc3nc4cc(Cl)c(Cl)cc4[nH]3)nc(N3CCN(C(=O)[C@H](C)NC(C)=O)CC3)nc21; value = -21.6%
Compound = CCn1cnc2c(NCc3nc4cc(Cl)c(Cl)cc4[nH]3)nc(N3CCN(C(=O)c4cccnc4)CC3)nc21; value = -10.5%
Compound = CCCCOc1nc(NCc2nc3cc(Cl)c(Cl)cc3[nH]2)c2ncn(CC)c2n1; value = 8.4%
Compound = CCn1cnc2c(NCc3nc4cc(F)c(F)cc4[nH]3)nc(N3CCn4ncnc4C3)nc21; value = 10.1%
Compound = Cn1cc(-n2cnc3c(NCc4nc5cc(Cl)c(Cl)cc5[nH]4)nc(N4CCNCC4)nc32)cn1; value = -3.2%
Compound = CC(=O)N1CCN(c2nc(NCc3nc4cc(Cl)c(Cl)cc4[nH]3)c3ncn(C)c3n2)CC1; value = -2.3%
Compound = CCn1cnc2c(NCc3nc4cc(Cl)c(Cl)cc4[nH]3)nc(N3CCN(C(=O)c4ccncc4)CC3)nc21; value = 3.7%
Compound = CCn1cnc2c(NCc3nc4cc(Cl)c(Cl)cc4[nH]3)nc(N3CCN(S(C)(=O)=O)CC3)nc21; value = 0%
Compound = CCn1cnc2c(NCc3nc4cc(Cl)c(Cl)cc4[nH]3)nc(N3CCN(c4ccccn4)CC3)nc21; value = 7.4%

Sample 2
Compound: CNc1ncc2cc(-c3cc(OC)cc(OC)c3Cl)c(=O)n(CCc3ccc(NC(=O)C(C#N)=CC(C)(C)N4CCOCC4)cc3)c2n1
Effect on: kinase activity
Quantity: inhibition
target = PRKCG (Homo sapiens, UniProt P05129); conditions = 0.1 µM; value = 1%
target = FLT1 (Homo sapiens, UniProt P17948); conditions = 1 µM; value = > 90% and 92%
target = RPS6KA3 (Homo sapiens, UniProt P51812); conditions = 1 µM; value = 2%
target = TEK (Homo sapiens, UniProt Q02763); conditions = 0.1 µM; value = -5%
target = DDR2 (Homo sapiens, UniProt Q16832); conditions = 0.1 µM; value = 4%
target = PDPK1 (Homo sapiens, UniProt O15530); conditions = 0.1 µM; value = -3%
target = NTRK1 (Homo sapiens, UniProt P04629); conditions = 0.1 µM; value = -1%
target = RPS6KA2 (Homo sapiens, UniProt Q15349); conditions = 1 µM; value = -1%
target = CLK1 (Homo sapiens, UniProt P49759); conditions = 1 µM; value = -4%
target = EPHB1 (Homo sapiens, UniProt P54762); conditions = 1 µM; value = -2%
target = PAK4 (Homo sapiens, UniProt O96013); conditions = 1 µM; value = -1%
target = MAP2K1 (Homo sapiens, UniProt Q02750); conditions = 0.1 µM; value = -8%

Sample 3
SMILES: C[C@@H]1CN(c2ccc(-c3cc(C(=O)NCCOCCOCCOCCOCCOCCOCCNC(=O)/C=C/c4[nH]cc(C(=O)N[C@@H](CC(N)=O)c5ccc(F)c(Cl)c5)c4-c4ccc(Cl)cc4F)ccc3F)cc2NC(=O)c2ccc(F)cc2C(F)(F)F)C[C@H](C)N1C
Effect on: thermal unfolding
Technique: differential scanning fluorimetry
Tested at: 5.5 µM
Reading: higher = more unfolded
Quantity: SYPRO Orange fluorescence
WDR5: WD repeat-containing protein 5 (WDR5, Homo sapiens, UniProt P61964)
target = WDR5; conditions = 77.61 °C; value = 59100 a.u.
target = WDR5; conditions = 71.61 °C; value = 33900 a.u.
target = WDR5; conditions = 62.21 °C; value = 15200 a.u.
target = DCAF1 (Homo sapiens, UniProt Q9Y4B6); conditions = 71.41 °C; value = 46800 a.u.
target = WDR5; conditions = 77.01 °C; value = 57000 a.u.
target = WDR5; conditions = 88.21 °C; value = 57500 a.u.
target = WDR5; conditions = 65.81 °C; value = 17200 a.u.

Mixed results
SMILES = Cc1ccc(O)c(C)c1-c1cnc2[nH]c(-c3cnc(N)nc3)cc2c1C#N; tested on = biomarker-positive cells (CCNE1 amp, FBXW7 mut, PPP2R1A loss); assay = cell growth; conditions = 168 h, average; quantity = IC50; value = 503 nM
SMILES = Cc1ccc(O)c(C)c1-c1cnc2[nH]c(-c3cnc(N4CCC(CN5CCN(c6cc7c(cc6F)n(C6CCC(=O)NC6=O)c(=O)n7C)CC5)CC4)nc3)cc2c1C#N (stereo not drawn); system = CD-1 mouse, female, plasma; conditions = oral, 20 mg/kg; quantity = oral bioavailability; value = 30.4%
SMILES = Cc1ncc(-c2cc3c(C#N)c(-c4c(C)ccc(O)c4C)cnc3[nH]2)cn1; system = Caco-2; conditions = 2 µM, 2 h, pH 7.4; quantity = Papp A→B; value = 5.46 ×10⁻⁶ cm/s
SMILES = Cc1ccc(O)c(C)c1-c1cnc2[nH]c(-c3cnc(N4CCC5(CC4)CC(N4CCN(c6ccc(N[C@@H]7CCC(=O)NC7=O)cc6F)CC4)CO5)nc3)cc2c1C#N (single isomer, unassigned); tested on = PKMYT1 (Homo sapiens, UniProt Q99640); assay = degrader, automated immunoblot (Jess); conditions = 12.35 nM, 24 h; quantity = degradation; value = 76.5%
